Results pooled from the literature.
Several values in a cell are separate wells, animals, samples, runs or records.

Compound | cell line | read-out | mode | method | time | setting | IC50
Cc1nc(Nc2ccc3c(c2)/C(=C/c2ccccc2C)C(=O)N3C)c2ccccc2n1 | B16 | cell growth or viability | – | MTT | – | – | 3.24 µM
C=CC(=O)N1CCN(c2nc(=O)n(-c3c(C)ccnc3C(C)C)c3nc(-c4c(O)cccc4F)c(F)cc23)[C@@H](C)C1 | NCI-H23 | cell growth or viability | – | ATP luminescence | – | – | > 10 µM
COc1cccc2c1C(=O)c1c(O)c3c(c(O)c1C2=O)C[C@@](O)(C(=O)CO)C[C@@H]3O[C@H]1C[C@H](N)[C@H](O)[C@H](C)O1 | A549 | cell growth or viability | – | WST-1 | 72 h | – | 0.45 µM
Cc1nc(Nc2ncc(C(=O)Nc3c(C)cccc3Cl)s2)cc(N2CC[C@H](O)C2)n1 | OCI-Ly3 | cell growth or viability | – | ATP luminescence | 72 h | – | > 10 µM
CCCCNC(=O)Nc1ccc(-c2ccc3ncn(CCCC)c(=O)c3c2)cn1 | HCC827 | cell growth or viability | – | CCK-8 | 72 h | – | 2.21 µM
Cc1nc(NC(=O)N2CCC[C@H]2C(N)=O)sc1-c1ccnc(C(C)(C)C(F)(F)F)c1 | B16 | cell growth or viability | – | MTT | – | – | 20.4 µM
C[C@H]1[C@H](C)CC[C@]2(CO)CC[C@]3(C)C(=CC[C@@H]4[C@@]5(C)CC[C@H](O)C(C)(C)[C@@H]5CC[C@]43C)[C@H]12 | RAW264.7 | NO release | inhibitor | Griess | – | LPS-stimulated | > 100 µM
Cc1nc(Nc2ccc3c(c2)/C(=C/c2ccccc2Cl)C(=O)N3)c2ccccc2n1 | BEAS-2B | cell growth or viability | – | MTT | – | – | 39.1 µM
CCCn1cnc2ccc(-c3ccc(NC(=O)CC4CCC4)nc3)cc2c1=O | NCI-H1975 | cell growth or viability | – | CCK-8 | 72 h | – | 1.84 µM
COc1cc2ncnc(Nc3ccc4c(c3)/C(=C/c3ccccc3)C(=O)N4C)c2cc1OC | BEAS-2B | cell growth or viability | – | MTT | – | – | 12.3 µM
C=C(F)C(=O)N1CCN(c2nc(OC[C@@H]3CCCN3C)nc3c2CCN(c2cccc4cccc(Cl)c24)C3)C[C@@H]1CC#N | NCI-H358 | cell growth or viability | – | ATP luminescence | – | – | 0.0723 µM
COc1cc(Nc2nccc(-c3cnn4nc(OC)ccc34)n2)cc(C(F)(F)F)c1 | EPLC-272H | cell growth or viability | – | ATP luminescence | – | – | 0.39 µM
Cc1nc(Nc2ccc3c(c2)/C(=C/c2ccccc2C)C(=O)N3)c2ccccc2n1 | B16 | cell growth or viability | – | MTT | – | – | 1.39 µM
CCCCn1cnc2ccc(-c3ccc(NC(=O)c4ccccc4)nc3)cc2c1=O | HCC827 | cell growth or viability | – | CCK-8 | 72 h | – | 0.78 µM
COc1cc2nc(N3CCN(C(=O)c4ccco4)CC3)nc(N)c2cc1OC | HONE1 | cell growth or viability | – | MTT | 48 h | – | 55.9 µM
COC1=C(OC)[C@H](O)[C@H](C/C=C(\C)CC/C=C(\C)CCC=C(C)C)[C@@H](C)C1=O | A549 | cell growth or viability | – | MTS | – | – | 8.95 µM and 6.95 µM and 4.05 µM
CCCn1cnc2ccc(-c3ccc(N4CCCCCCC4=O)nc3)cc2c1=O | NCI-H1975 | cell growth or viability | – | CCK-8 | 72 h | – | > 10 µM
CC(C)C[C@H](NC(=O)[C@H](Cc1ccccc1)NC(=O)c1cnccn1)B(O)O | RKO | cell growth or viability | – | ATP luminescence | – | – | 0.0089 µM
Cc1nc(Nc2ccc3c(c2)C(C)(C)C(=O)N3C)c2ccccc2n1 | BEAS-2B | cell growth or viability | – | MTT | – | – | 93.5 µM
Cc1ccc(NC(=O)Nc2ccc(-c3ccc4ncn(Cc5ccccc5)c(=O)c4c3)cn2)cc1 | NCI-H1975 | cell growth or viability | – | CCK-8 | 72 h | – | > 10 µM
COc1cc2ncnc(Nc3ccc4c(c3)/C(=C/c3cccc(Cl)c3)C(=O)N4C)c2cc1OC | BEAS-2B | cell growth or viability | – | MTT | – | – | 9.74 µM
CCCCn1cnc2ccc(-c3ccc(NC(=O)CCC)nc3)cc2c1=O | HCC827 | cell growth or viability | – | CCK-8 | 72 h | – | 3.33 µM
COc1cc2nc(N3CCN(C(=O)C4COc5ccccc5O4)CC3)nc(N)c2cc1OC (centres unmarked) | HONE1 | cell growth or viability | – | MTT | 48 h | – | 25.8 µM
COC(=O)CN=c1scc(-c2ccccc2)n1-c1ccc(C)cc1 | HepG2 | cell growth or viability | – | MTT | 72 h | – | 49.3 µM
CCCCC(=O)Nc1ccc(-c2cnc3ccn(CCC)c(=O)c3c2)cn1 | HCC827 | cell growth or viability | – | CCK-8 | 72 h | – | 1.7 µM
COc1ccc(NC(=O)NCc2cn(Cc3ccccc3C)nn2)cc1 | Huh-7 | cell growth or viability | – | CCK-8 | 72 h | – | > 50 µM
C[C@]12O[C@H](C[C@]1(O)CO)n1c3ccccc3c3c4c(c5c6ccccc6n2c5c31)CNC4=O | MOLM-13 | cell growth or viability | – | ATP luminescence | 72 h | – | 0.012 µM
Cc1nc(N(C)c2ccc3c(c2)/C(=C/c2ccccc2Cl)C(=O)N3C)c2ccccc2n1 | B16 | cell growth or viability | – | MTT | – | – | 5.96 µM
C#CCn1cnc2ccc(-c3ccc(NC(=O)CCCC)nc3)cc2c1=O | HCC827 | cell growth or viability | – | CCK-8 | 72 h | – | > 10 µM

For quick reference, copied from above:
Compound | cell line | read-out | mode | method | time | setting | IC50
C=CC(=O)N1CCN(c2nc(=O)n(-c3c(C)ccnc3C(C)C)c3nc(-c4c(O)cccc4F)c(F)cc23)[C@@H](C)C1 | NCI-H23 | cell growth or viability | – | ATP luminescence | – | – | > 10 µM
COc1cc(Nc2nccc(-c3cnn4nc(OC)ccc34)n2)cc(C(F)(F)F)c1 | EPLC-272H | cell growth or viability | – | ATP luminescence | – | – | 0.39 µM
Cc1nc(Nc2ncc(C(=O)Nc3c(C)cccc3Cl)s2)cc(N2CC[C@H](O)C2)n1 | OCI-Ly3 | cell growth or viability | – | ATP luminescence | 72 h | – | > 10 µM
CC(C)C[C@H](NC(=O)[C@H](Cc1ccccc1)NC(=O)c1cnccn1)B(O)O | RKO | cell growth or viability | – | ATP luminescence | – | – | 0.0089 µM
